Measurements of several laboratories.
A part holds a random share of what one study measured. Changes are numbered by the printed parent chain.

Set 1 — technique: protein binding microarray; form: double-stranded DNA, one strand shown; sample: in vitro; tested at: not given; reference: not given; direction: higher = stronger binding
Target: Histone acetyltransferase KAT6A, winged helix 2, GST fusion (KAT6A, Homo sapiens, UniProt Q92794, residues 85-181)
Notes: 8-mer, flanks averaged, mean of 2 arrays, mostly near background
Target sequence (chain): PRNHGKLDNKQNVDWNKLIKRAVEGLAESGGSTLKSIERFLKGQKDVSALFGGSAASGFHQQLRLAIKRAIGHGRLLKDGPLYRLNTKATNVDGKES
The E-score of `CCGACAGC` is reported as 0.0546.
With `CCAAACCG` the E-score was 0.133.
`AGTTTTCA` gave an E-score of 0.0892.
The E-score of `CGTTGCAG` is reported as -0.163.
With `GAGCCATA` the E-score was -0.07.
For `TGTGGTAA`, the E-score was 0.031.
For `AGTGGGGG`, the E-score was -0.124.
`ATGTGCTC` has an E-score of 0.0742.
`GTGTCCCA` has an E-score of 0.114.
`AAACCCGA` gave an E-score of 0.126.
With `CGCTATGA` the E-score was 0.0315.
`AGGATAAT` has an E-score of 0.0562.
For `CACTTATC`, the E-score was -0.0844.
`CCCCGGCA` gave an E-score of 0.00613.
For `GAGGATAA`, the E-score was 0.123.
`GGAACCAC` has an E-score of -0.0253.
`CTTCACAC` gave an E-score of -0.0121.
`AGCCCGTA` has an E-score of -0.195.
The E-score of `GAAGTTAC` is reported as -0.1.
For `ACGATCCT`, the E-score was -0.0205.
With `GAATGCTC` the E-score was 0.0537.
For `GACTAAGA`, the E-score was 0.157.
`TCAATGGA` has an E-score of -0.136.
With `GCCGCAGC` the E-score was 0.185.
`TGCCCGCA` has an E-score of 0.148.

Set 2 — target: OGT, full length, His-tagged (human); technique: phage display, sequencing; sample: in vitro; tested at: 1 µg OGT; reference: input library; direction: higher = stronger binding; parent: peptide; NSEYMPQYQIIFAHQ
Notes: single substitutions, 15-mer displayed peptide, unchanged parent 16.7
`M5T` gave a fold enrichment of 8.89 fold.
With `Q7T` the fold enrichment was 2.13 fold.
With `Q15M` the fold enrichment was 10.8 fold.
For `H14P`, the fold enrichment was 17.3 fold.
`Q7L` gave a fold enrichment of 13.6 fold.
For `S2E`, the fold enrichment was 17.1 fold.
For `Q15T`, the fold enrichment was 17.4 fold.
With `Q15V` the fold enrichment was 17 fold.
For `S2N`, the fold enrichment was 18.3 fold.
The fold enrichment of `N1T` is reported as 15.3 fold.
For `Q9L`, the fold enrichment was 6.99 fold.
`Q15W` has a fold enrichment of 7.44 fold.
`Q7R` gave a fold enrichment of 10.1 fold.
`A13H` gave a fold enrichment of 18.3 fold.

Set 3 — technique: universal PBM; form: double-stranded DNA, one strand shown; sample: in vitro; tested at: 600 nM; direction: higher = stronger binding
Target: Sal-like protein 4, full length isoform A (SALL4, Homo sapiens, UniProt Q9UJQ4, residues 1-1053)
Chain of UniProt Q9UJQ4 (whole entry, looked up): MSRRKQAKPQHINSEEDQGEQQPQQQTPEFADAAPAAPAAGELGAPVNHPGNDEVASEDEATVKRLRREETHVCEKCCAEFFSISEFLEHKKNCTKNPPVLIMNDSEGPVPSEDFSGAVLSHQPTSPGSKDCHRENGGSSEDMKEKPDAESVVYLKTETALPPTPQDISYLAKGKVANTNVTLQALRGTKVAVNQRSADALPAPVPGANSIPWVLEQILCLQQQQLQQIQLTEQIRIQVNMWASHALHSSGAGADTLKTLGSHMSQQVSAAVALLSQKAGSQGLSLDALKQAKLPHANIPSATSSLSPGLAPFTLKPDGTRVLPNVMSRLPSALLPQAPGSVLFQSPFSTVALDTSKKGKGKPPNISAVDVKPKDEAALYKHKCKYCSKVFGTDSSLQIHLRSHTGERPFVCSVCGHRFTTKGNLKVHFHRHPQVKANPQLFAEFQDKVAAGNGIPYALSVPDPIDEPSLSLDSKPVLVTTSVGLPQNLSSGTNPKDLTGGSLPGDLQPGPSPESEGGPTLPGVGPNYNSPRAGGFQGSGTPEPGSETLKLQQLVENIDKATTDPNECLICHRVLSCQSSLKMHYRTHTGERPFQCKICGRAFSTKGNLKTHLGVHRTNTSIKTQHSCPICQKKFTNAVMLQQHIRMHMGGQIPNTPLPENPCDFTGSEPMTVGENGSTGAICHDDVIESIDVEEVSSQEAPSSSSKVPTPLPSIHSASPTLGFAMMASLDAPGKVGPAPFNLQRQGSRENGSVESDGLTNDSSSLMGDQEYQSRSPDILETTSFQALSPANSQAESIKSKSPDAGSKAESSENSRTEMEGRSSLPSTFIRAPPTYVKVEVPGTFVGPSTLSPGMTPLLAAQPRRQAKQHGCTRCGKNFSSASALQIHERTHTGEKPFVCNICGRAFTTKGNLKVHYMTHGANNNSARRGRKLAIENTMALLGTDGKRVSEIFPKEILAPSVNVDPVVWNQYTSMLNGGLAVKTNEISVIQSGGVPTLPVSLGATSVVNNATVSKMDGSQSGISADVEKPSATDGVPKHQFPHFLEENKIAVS
Notes: 8-mer, flanks averaged, mean of replicates
`CTCACCGA` gave an E-score of -0.0992.
`ACGCAACA` has an E-score of 0.13.
For `ATATCGCG`, the E-score was 0.135.
For `TACAGTAA`, the E-score was 0.311.
For `TGTGTTAA`, the E-score was 0.31.
For `TGAGGAAA`, the E-score was 0.208.
`ACACGCAT` has an E-score of 0.0925.
With `AAAAGCCG` the E-score was -0.214.
`GAAATGAC` gave an E-score of 0.232.
For `CTGGGAGA`, the E-score was -0.202.
`CTCCACAC` gave an E-score of -0.107.
`CTTCTGAA` gave an E-score of 0.179.
The E-score of `AACTTTAA` is reported as 0.257.
With `GAACTTCC` the E-score was -0.0909.
`GGGATCGA` has an E-score of -0.175.
For `CAGACCGA`, the E-score was -0.183.
`GGGACATA` gave an E-score of 0.113.
The E-score of `CGTCCTTC` is reported as 0.0592.
`GATTTTCC` gave an E-score of 0.0397.
For `AGGATAAC`, the E-score was 0.0483.
`CTCTGCAC` gave an E-score of -0.144.
`ACTAAACA` has an E-score of 0.232.

Set 4 — Substance: PHB1 (Homo sapiens, UniProt P35232); technique: cross-linking MS; sample: cell fractions
PCDH1 (Homo sapiens, UniProt Q08174); together with: DMTMM — cross-linked residues: “E215 to K367”.
It gave “K202 to K136” for cross-linked residues (RAB10 (Homo sapiens, UniProt P61026); together with: DSSO).
For LYSMD3 (Homo sapiens, UniProt Q7Z3D4); together with: DHSO: cross-linked residues read “D217 to D165”.

Set 5 — target: CCNB3, cyclin fold, Cln2 fusion (human); technique: yeast growth competition, sequencing; sample: yeast; notes: weak parent motif; reference: not given; direction: higher = stronger binding
Parent: BORA docking peptide (human); SSLRRKLFLDGNG
`SSLRRALFLDGNG [K6A]` — result for “normalised enrichment score”: 0.287.
Under “normalised enrichment score”, `SSLRKKLLLDGNG [R5K F8L]` is recorded as 0.0957.
For `SSLRAKLFLDGNG [R5A]`, “normalised enrichment score” read 0.352.
Under “normalised enrichment score”, `SALRRKLFLDGNG [S2A]` is recorded as 0.694.
For `SSLRRKLFADGNG [L9A]`, “normalised enrichment score” read 0.0454.
`SSLRKKLFLDGNG [R5K]` — result for “normalised enrichment score”: 0.615.
`SSLRRKLFLDANG [G11A]` — result for “normalised enrichment score”: 0.429.
`SSLARKLFLDGNG [R4A]`: “normalised enrichment score” 0.364.
`SSARRKLFLDGNG [L3A]` — result for “normalised enrichment score”: 0.802.
For `SSLRRKLLLDGNG [F8L]`, “normalised enrichment score” read 0.433.
For `SSLRAKAFLDGNG [R5A L7A]`, “normalised enrichment score” read -0.202.

Set 6 — target: FOSL1, bZIP domain (human); technique: DHFR protein complementation; sample: yeast; reference: wild-type JUN-FOS pair; direction: higher = stronger binding
Notes: single substitutions, most at no-binding floor
Parent: JUN, bZIP domain (human); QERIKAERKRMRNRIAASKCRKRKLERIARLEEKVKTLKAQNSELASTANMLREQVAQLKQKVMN; partner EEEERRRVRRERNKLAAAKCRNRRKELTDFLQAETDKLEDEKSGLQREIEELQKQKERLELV
`V56H` gave a binding fitness of -1.54 natural log.
With `R53P` the binding fitness was -1.39 natural log.
With `R30W` the binding fitness was -0.353 natural log.
With `A40M` the binding fitness was -0.574 natural log.
For `R30D`, the binding fitness was -0.184 natural log.
The binding fitness of `K34L` is reported as -0.567 natural log.
`K34E` has a binding fitness of -0.796 natural log.
`S43M` has a binding fitness of -0.357 natural log.
For `R30F`, the binding fitness was -0.288 natural log.
`K36C` gave a binding fitness of -0.412 natural log.
For `K39L`, the binding fitness was -0.928 natural log.
The binding fitness of `A49M` is reported as -0.697 natural log.
`Q41F` has a binding fitness of -1.46 natural log.
With `Q55N` the binding fitness was -0.955 natural log.
`L52R` has a binding fitness of -1.39 natural log.
With `R53T` the binding fitness was -1.25 natural log.
The binding fitness of `E33I` is reported as -0.812 natural log.
For `L31W`, the binding fitness was -0.819 natural log.
`V35Q` has a binding fitness of -0.863 natural log.
`A29T` gave a binding fitness of -0.466 natural log.
The binding fitness of `A29F` is reported as -0.602 natural log.
`I28W` gave a binding fitness of -0.61 natural log.
The binding fitness of `E54K` is reported as -0.55 natural log.
`I28G` gave a binding fitness of -0.938 natural log.
The binding fitness of `K36N` is reported as -0.473 natural log.

Some of these lines once more (set 2):
For `S2E`, the fold enrichment was 17.1 fold.
For `Q15T`, the fold enrichment was 17.4 fold.
With `Q15V` the fold enrichment was 17 fold.
For `S2N`, the fold enrichment was 18.3 fold.
The fold enrichment of `N1T` is reported as 15.3 fold.
For `Q9L`, the fold enrichment was 6.99 fold.
`Q15W` has a fold enrichment of 7.44 fold.
